Measurements from different studies.
Compare with care: the assays were run in different laboratories. “And” joins repeats or separate records; there may be more than shown. Numbers after ± are the reported error.

| SMILES | assay | system | setting | scale | measurement | value |
| --- | --- | --- | --- | --- | --- | --- |
| COc1ccnc(C(N)=O)c1O | soil adsorption | tested soils | geometric mean |  | Freundlich coefficient KF | 16.5 mL/g |
| Cc1ccc(C(=O)N(CCCN)C(c2nc3snc(C)c3c(=O)n2Cc2ccccc2)C(C)C)cc1 (stereo not drawn) |  | human patients, plasma | intravenous, 16 mg/day, day 3 of induction course, geometric mean |  | plasma concentration at 24 h | 23.4 ng/mL |
| CNc1ccc(-c2nc3ccc(O)cc3s2)cc1 [carbon-11 labelled] | microPET/CT imaging | B6SJL mouse, normal, brain | intravenous, 20 min |  | SUV | 0.21 ± 0.065 |
| CSc1nc(O)n2nccc2n1 | haemolysis | sheep erythrocytes | 1 h, pH 7.5 |  | HC50 | > 128 µg/mL |
| CN1C[C@H](COc2nccc3c(NCc4ccco4)cc(Cl)nc23)OC1=O |  | rabbit NZW female, isolated Langendorff heart | 3 µM, 15 min |  | QTc interval | 259 ms |
| C[C@H]1Oc2cc(cnc2N)-c2c(nn(C)c2C#N)CN(C)C(=O)c2ccc(F)cc21 |  | human patients, plasma | oral, cycle 2 day 1, geometric mean, together with: avelumab |  | Cmax, dose-normalized | 6 ng/mL/mg |
| Cc1c(C(=O)O)ccc2c3n(nc12)[C@@H]1[C@H](C3)N(CC2CC2)[C@@]2(C(=O)Nc3cc(Cl)ccc32)[C@H]1c1cccc(Cl)c1F |  | female BALB/c nude mice, SJSA-1 xenograft, plasma | oral, 2 mg/kg once daily, individual animals |  | AUC(0-t) | 28.3 µM·h |
| COc1cc(C(=O)N2CCC3(CC2)CC(=O)c2c(cnn2C(C)C)C3)cc(-c2ccc(C(=O)O)cc2)n1 | item: total cholesterol | human, fasting serum | 1 mg every 12 h, day 13, adjusted geometric mean | baseline: baseline | percentage change from baseline | -4.5% |
| COc1ccc2c(c1)CN(C(=O)CCN1CCC(Cc3ccccc3)CC1)CC[S@@+]2[O-] |  | human plasma | 1000 ng/mL |  | fu | 0.133 |
| CNC(=O)c1cccc(-c2ccc([C@@H](O)[C@H]3O[C@H](CO)[C@@H](O)[C@H](O)[C@@H]3O)c(C)c2)c1 |  | male Sprague-Dawley rat, plasma | oral, 10 mg/kg, group mean |  | terminal half-life | 3.53 h |
| O=C(c1cccnc1-c1ccncc1)N1CCC(O)(Cc2ccccc2)CC1 |  | healthy Japanese adults, plasma | oral, 200 mg twice daily, day 14 |  | CL/F | 277 L/h |
| O=C1Cc2cc(CCN3CCN(c4nsc5ccccc45)CC3)c(Cl)cc2N1 |  | male Hartley guinea pig, anaesthetized | intravenous infusion, 0.3 mg/kg, 10 min infusion, post-infusion |  | QTc interval | 391 ± 0.4 ms |
| CC(C)C[C@H](NC(=O)CNC(=O)c1cc(Cl)ccc1Cl)B(O)O | item: Hyponatraemia | human newly diagnosed multiple myeloma | oral, dose not given, maintenance, grade 3, onset cycle 17 or later |  | treatment-emergent adverse events | 0% |
| Cl.[2H]C([2H])([2H])CC(=O)c1cnc(NC(=O)C2CC2)cc1Nc1cccc(-c2ncn(C([2H])([2H])[2H])n2)c1OC |  | human, fasted, plasma | oral, 25 mg, single dose, liquid formulation |  | CL/F | 13.5 L/h |
| O=C(O)CSc1nnc(Br)n1-c1ccc(C2CC2)c2ccccc12 |  | KM mouse, chronic hyperuricaemia model | dose not given, day 22 |  | body weight | 35.5 g and 31.4 g and 32.5 g and 39.3 g and 36.9 g and 36 g |
| COc1ccc2c(=O)n(C)c(-c3ccccc3)nc2c1 |  | male Sprague-Dawley rat, testis | oral, 30 mg/kg, 0.25 h | baseline: testis over plasma | tissue/plasma ratio | 0.8 |
| CC(C)N(CCCCOCC(=O)O)c1cnc(-c2ccccc2)c(-c2ccccc2)n1 | population PK model | healthy human, plasma | oral |  | k34 rate constant | 13.5 h⁻¹ |
| COc1ccc([C@@H](O)c2cc(-c3ncnc4cc(N5CCOCC5)ccc34)c(F)cc2Cl)nn1 |  | locally advanced rectal cancer patients | 250 mg, together with: capecitabine and radiotherapy |  | asthenia TEAE incidence | 50% |
| O=C(Nc1ccc(OC(F)(F)Cl)cc1)c1cnc(N2CC[C@@H](O)C2)c(-c2ccn[nH]2)c1 |  | human patients | oral, dose not given | baseline: records | amylase increase incidence | 2.4% |

| SMILES | assay | system | setting | scale | measurement | value |
| --- | --- | --- | --- | --- | --- | --- |
| C=CC(=O)Nc1cc(Nc2nccc(-c3cn(C)c4ccccc34)n2)c(OC)cc1N(C)CCN(C)C | storage stability | human dried blood spots | 72 h, -80 °C, low QC level |  | recovery | 94.4% |
| Cc1c(-c2ccc(N3CCc4cccc(C(=O)Nc5nc6ccccc6s5)c4C3)nc2C(=O)O)cnn1CC12CC3(C)CC(C)(C1)CC(OCCNCC[C@H](O)CO)(C3)C2 |  | beagle dog, anaesthetised | intravenous infusion, 0.3 mg/kg/min, 60 min | baseline: vehicle | PR interval change | -4 ms |
| Cn1ncc(S(=O)(=O)NC2(c3ccc(Cl)cc3F)CCCCC2)c1C(=O)O | colloidal aggregate formation, dynamic light scattering | 50 mM potassium phosphate buffer | 200 µM, pH 7.0, 1% DMSO | higher = more aggregation | DLS scattered light intensity | 1.3e+06 counts/s |
| O=C(O)CC[C@H](NC(=O)N[C@@H](CCCCNC(=O)[C@H](Cc1ccc2ccccc2c1)NC(=O)[C@H]1CC[C@H](CNC(=O)CN2CCN(CC(=O)O)CCN(CC(=O)O)CCN(CC(=O)O)CC2)CC1)C(=O)O)C(=O)O |  | male BALB/c nude mice, LS174T-PSMA xenografts, liver | intravenous, 0.3 nmol, 2 h, radiolabelled (111In or 99mTc) | baseline: tumour over liver | tumour-to-tissue ratio | 267 ± 73.5 |
| CCN1/C(=C/C(C)=O)Sc2ccc(F)cc21 |  | cynomolgus monkey | oral, 100 mg/kg, 4 h post-dose | baseline: pre-dose | QTc interval change | 99.3 ± 3.2% |
| CCCCc1ccc(-c2ccc(C#N)cc2)cc1 | item: compound | human pregnant women, male fetuses, maternal serum | dose not given, paired maternal-cord samples, mean |  | concentration | 0.19 ng/mL |
| CCOc1c([C@H](C)n2nc(C)c3c(N)ncnc32)cc(Cl)c(F)c1[C@@H]1CNC(=O)C1 |  | rat plasma | 5 ng/mL, 3 weeks, -80 °C, frozen storage | baseline: nominal concentration | stability relative error | 7.9% |
| Nc1ccn([C@@H]2O[C@H](CO)[C@@H](O)C2(F)F)c(=O)n1 | item: dFdU | human, plasma | intravenous, 800 mg/m^2, together with: after paricalcitol |  | Cmax, mean | 16100 ng/mL |
| CN1CCN=C1c1ccc(NC(=O)c2ccc(C(=O)Nc3ccc(C4=NCCN4C)cc3)cc2)cc1 | haemolysis | sheep erythrocytes | 1 h, pH 7.5 |  | HC50 | > 128 µg/mL |
| CCc1cc(C(=O)NC)c2nccc(N3CCc4c(cc(Cn5ccnc5)cc4-c4cn(C)nc4C(F)(F)F)C3=O)c2c1 | item: TP | Sprague Dawley rat | oral, 100 mg/kg once daily, 7 days | baseline: vehicle | change in clinical chemistry or haematology parameter | -2.1% |
| Cc1ccc([C@@H]2O[C@H](CO)[C@@H](O)[C@H](O)[C@H]2O)cc1Cc1ccc(-c2ccc(F)cc2)s1 |  | Japanese type 2 diabetes patients | 100 mg, day 15, 24 h urine collection | baseline: baseline | urinary potassium excretion change | 5.24 mEq |
| O=C1c2ccncc2C(=O)c2c1[nH]c1ccccc21 |  | Sprague-Dawley rat male, plasma | intravenous, 1 mg/kg |  | terminal half-life | 6.5 ± 0.8 h |
| CC(C)(C(=O)N1CCOc2c(C#N)cncc2C1)C(F)F |  | human, both sexes | oral, 40 mg single dose |  | subjects with dizziness TEAE | 16.7% |
| O=C(O)CCCCCCCCCCC(=O)O |  | human, plasma | endogenous baseline diurnal |  | daily mean concentration | 44.1 ± 4.7 nM |
| C[C@H](CS)C(=O)N1CCC[C@H]1C(=O)O |  | male Hartley guinea pig, anaesthetized | intravenous infusion, 10 mg/kg, 10 min infusion, post-infusion |  | QTc interval | 334 ± 0.6 ms |
| CCn1cc(C(=O)N2CCOCC2)c(=O)c2cc(NC3Cc4ccccc4C3)cnc21 |  | human, fed | oral suspension, 2000 mg/day twice daily, day 8, arithmetic mean |  | AUC(0-12) | 24900 ng·h/mL |
| CCOc1c([C@H](C)n2nc(C)c3c(N)ncnc32)cc(Cl)c(F)c1[C@@H]1CNC(=O)C1 | item: 30 < ΔQTcF ≤ 60 ms | previously treated B-cell malignancy | oral, dose not given, baseline QTcF ≤450 ms, all doses |  | share of patients | 9.1% |
| O=C(Nc1cnccc1Cl)N1CCN(Cc2ccc3c(c2)OC(F)(F)O3)CC1 | multiple ascending dose | young men | 10 mg, treatment-emergent adverse events |  | alanine aminotransferase increased | 33.3% |
| Cc1ccc(Sc2ccccc2N2CCNCC2)c(C)c1 | item: hot flush | healthy adult men | oral, 5 mg daily, 12 days |  | participants with TEAE | 0% |

| SMILES | assay | system | setting | scale | measurement | value |
| --- | --- | --- | --- | --- | --- | --- |
| CC(C)[C@H](N)C(=O)NCCCS(=O)(=O)O |  | human both sexes, plasma | oral, 256.5 mg once daily, day 1, fed capsule |  | AUC(0-12) | 10400 ng·h/mL |
| N#Cc1ccc2c(c1)[C@H]1CCCN(C(=O)c3ccc4[nH]cnc4c3)[C@H]1C2 |  | human females | 360 mg, day 15 |  | total testosterone level | 0.9 nmol/L |
| O=S(=O)(NCc1cnc(-n2cccn2)s1)c1cccc(Cl)c1O | colloidal aggregate formation, dynamic light scattering | 50 mM potassium phosphate buffer | 200 µM, pH 7.0, 1% DMSO | higher = more aggregation | DLS scattered light intensity | 634000 counts/s |
| CO/N=C(\C(=O)N[C@@H]1C(=O)N2C(C(=O)O)=C(COC(C)=O)CS[C@H]12)c1csc(N)n1 |  | human whole blood | concentration not given, 48 h, 4 °C |  | deviation from nominal concentration | -2.6% |
| O=C(O)CCC(=O)O.[2H]C([2H])([2H])Oc1cc(C)c2[nH]ccc2c1CN1CC[C@@H](C2CC2)C[C@H]1c1ccc(C(=O)O)cc1 |  | healthy Chinese subjects | 100 mg, single ascending dose |  | TEAE hyponatremia | 0% |
| CNC(=O)c1cc(Oc2ccc(NC(=O)N(c3ccc(Cl)c(C(F)(F)F)c3)[C@@H]3O[C@H](C(=O)O)[C@@H](O)[C@H](O)[C@H]3O)cc2)ccn1 |  | mouse, wild type, plasma | oral, 10 mg/kg, without rifampin, geometric mean |  | AUC(0-7.5 h) | 3970 ng·h/mL |
| C=CCN1CC(=O)N2[C@@H](Cc3ccc(O)cc3F)C(=O)N(Cc3cccc(N4CC(N5CCN(CC)CC5)C4)n3)C[C@@H]2N1C(=O)NCc1ccccc1 |  | advanced solid tumour patients | oral, 80 mg twice daily, grade ≥3, dose-escalation |  | treatment-related AST increased | 0% |
| O=S(=O)(Nc1ccc(C2CCOC2)cc1)c1cccc(Cl)c1O (stereo not drawn) | colloidal aggregate formation, dynamic light scattering | 50 mM potassium phosphate buffer | 200 µM, pH 7.0, 1% DMSO | higher = more aggregation | DLS scattered light intensity | 267000 counts/s |
| O=C(Nc1nc2cccc(-c3ccc(CN4CCS(=O)(=O)CC4)cc3)n2n1)C1CC1 | item: constipation | human rheumatoid arthritis patients | oral, 150 mg once daily, 4 weeks, regardless of relatedness |  | treatment-emergent adverse events | 6.7% |
| Cc1cc(-c2nccc3c2ccn3CC(=O)Nc2ccc(-c3cnccn3)cn2)ccn1 |  | human | 5 mg once daily, multiple ascending dose |  | subjects with serious TEAE | 0% |
| C=CC(=O)N1CCC[C@@H](n2nc(-c3ccc(Oc4ccccc4)cc3)c3c(N)ncnc32)C1 | dialysis bag | phosphate buffer | 72 h, pH 7.4, 37 °C |  | drug release | 36.1 ± 5.59% |
| CC(=O)N1CCc2c(NS(=O)(=O)c3cccc(Cl)c3O)cccc21 | colloidal aggregate formation, dynamic light scattering | 50 mM potassium phosphate buffer | 200 µM, pH 7.0, 1% DMSO | higher = more aggregation | DLS scattered light intensity | 753000 counts/s |
| NC1(C(=O)N[C@@H](CCO)c2ccc(Cl)cc2)CCN(c2nc[nH]c3nccc2-3)CC1 |  | metastatic CRPC patients | 400 mg b.i.d., any grade, treatment-related, together with: enzalutamide 160 mg daily |  | incidence of Anaemia | 0% |
| COc1ccnc(C(=O)N[C@H]2COC(=O)[C@H](Cc3ccccc3)[C@@H](O)[C@H](C)OC2=O)c1O | soil adsorption | clay loam soil | pH 7.2, organic carbon 4.4 % |  | Freundlich coefficient KF | 11.7 mL/g |
| N#Cc1cc(NC(=O)[C@H]2c3ccccc3C(=O)N(CC(F)(F)F)[C@@H]2c2cccnc2)ccc1F |  | human | oral, 600 mg, fed, population mean |  | CL | 535 mL/min |
| Cc1cc(-c2nnc(N)nc2-c2ccc(F)cc2)cc(Cl)n1 |  | human, IO-naive other solid tumours | oral, 100 mg once daily, phase Ia/Ib, any grade |  | patients with treatment-related AE | 94.7% |
| O=c1[nH]c(=O)n([C@@H]2O[C@H](CO)[C@@H](O)[C@@H]2F)cc1[125I] |  | nude mice, tumour-bearing, blood | dose not given, 2 h |  | blood radioactivity remaining | 0.69 ± 0.26 %ID/g |
| CCCOc1ccc(NS(=O)(=O)c2cc(Cl)cc(Cl)c2O)cc1F | colloidal aggregate formation, dynamic light scattering | 50 mM potassium phosphate buffer | 200 µM, pH 7.0, 1% DMSO | higher = more aggregation | DLS scattered light intensity | 411000 counts/s |
| O=C1NCCc2nc(OCc3cccc(F)c3)ccc21 | modified Irwin test | Sprague-Dawley rat, male | oral, 100 mg/kg, 30 min | higher = stronger effect | corneal reflex loss score | 0 |
